# Experimental data gathered from unrelated publications.
# Lines come from different studies, so protocols differ. Values joined by “and” are separate records of one study, mostly repeats; a detail may differ. Numbers after ± are the reported error.
Structure (SMILES),tested on,assay,test system,conditions,how to read,measurement,value
C=CCN1C(=O)C(CC=C)(C(=O)OCC)Oc2cc(F)ccc21 (stereo not drawn),L02,"cell growth or viability, CCK-8",,"0.78 µM, 72 h",,inhibition,0.07%
Cc1cc(Oc2nc(N3CC[C@@H](c4ccncc4)C3)ncc2F)[nH]n1,Mycobacterium tuberculosis,OD,H37Rv PurF CRISPRi knockdown,"6.1e-05 µM, together with: anhydrotetracycline low",,normalised growth,95%
CC(C)(C)C(=O)OCOP(=O)(OCOC(=O)C(C)(C)C)C1CCCN(O)C1=O (stereo not drawn),SNB-75,,,,,log GI50,-5.85 log M
O=C1NC2(CC2)COc2ncc(F)cc2[C@H]2COCCN2c2ccn3ncc1c3n2,,,"Sprague-Dawley rat, male, blood","oral, 10 mg/kg/day, 4 weeks, end of treatment, subacute toxicity",,haematocrit,44.2 ± 3.8%
COc1ccccc1-c1n[nH]c2nc(N[C@H]3CC[C@H](NS(=O)(=O)CC(C)C)CC3)ncc12,,"bead binding, competition bead pull-down, measured: LINJ.30.3480",Leishmania donovani extract,10 µM,relative to: vehicle,relative abundance,1.19
CN1CCN(S(=O)(=O)c2ccc(-c3ccc4ncnc(Nc5ccc(OCc6ccccc6)c(Cl)c5)c4c3)cc2)CC1,Plasmodium falciparum,"parasite growth, SYBR Green",D6,blood stage,,EC50,29 nM
COc1ccccc1-c1ccncc1C(=O)Nc1nnc(OCc2ccc(Cl)cc2)s1,RPE-1 BRCA1 WT parental,,,"4 µM, average of 2 runs",relative to: untreated,colony survival,71.6%
Cc1cc(C(=O)Nc2nc3cccc(C)c3n2[C@H]2CCCCN(C(=O)/C=C/CN(C)C)C2)ccn1,Trypanosoma brucei brucei,,2T1 CLK1 overexpressing,"0.0195 µM, DMSO pretreated",relative to: maximum,survival,45.9% and 59.6% and 58.7% and 54.7%
CC(C)C[C@@H]1NC(=O)[C@@H](Cc2c[nH]c3ccccc23)NC(=O)[C@H](CCCNC(=N)N)NC(=O)[C@@H](CCC(=O)O)NC(=O)[C@H](CCC(N)=O)NC(=O)[C@@H](CCC(=O)O)NC(=O)[C@H](CCCNC(=N)N)NC(=O)[C@@H](Cc2c[nH]c3ccccc23)NC1=O,,"Luminex, measured: MIG","LDLr-/- mice, Western diet, liver","dose not given, 4 weeks",,cytokine level,1200 ± 650 pg/g tissue
COc1ccccc1-c1n[nH]c2nc(NC3CCN(C(=O)Cc4ccc(F)cc4F)CC3)ncc12,,"bead binding, competition bead pull-down, measured: LINJ.23.0050",Leishmania donovani axenic amastigote extract,10 µM,relative to: vehicle,relative abundance,0.95
Cc1ccc(NS(=O)(=O)c2c(C(=O)N3CCCCCC3)c(C)n(C)c2C)c(Cl)c1,Fowlpox virus,viral infection,CEF,0.137 µM,relative to: untreated,infection,84.6% and 109%
CC(C)CC(C(=O)N1CC2(CC1C#N)C(=O)Nc1ccccc12)N(C)C(=O)c1cc2c(F)cc(F)c(F)c2[nH]1 (stereo not drawn),Human coronavirus 229E,cytopathic effect,MRC5,69 pM,,inhibition,-0.113%

# A few entries again:
Structure (SMILES),tested on,assay,test system,conditions,how to read,measurement,value
COc1ccccc1-c1n[nH]c2nc(NC3CCN(C(=O)Cc4ccc(F)cc4F)CC3)ncc12,,"bead binding, competition bead pull-down, measured: LINJ.23.0050",Leishmania donovani axenic amastigote extract,10 µM,relative to: vehicle,relative abundance,0.95
